# Measured values pooled from the literature.
# A part holds a random share of what one study measured. Positions count from the first letter of the parent shown.

# Sample 1 — target: CCNF, cyclin fold, Cln2 fusion (human); technique: yeast growth competition, sequencing; matrix: yeast; notes: strong parent motif; reference: not given; reading: higher = stronger binding
# Starting sequence: BRCA2 docking peptide (human); PSIKRNLLNEFDR; partner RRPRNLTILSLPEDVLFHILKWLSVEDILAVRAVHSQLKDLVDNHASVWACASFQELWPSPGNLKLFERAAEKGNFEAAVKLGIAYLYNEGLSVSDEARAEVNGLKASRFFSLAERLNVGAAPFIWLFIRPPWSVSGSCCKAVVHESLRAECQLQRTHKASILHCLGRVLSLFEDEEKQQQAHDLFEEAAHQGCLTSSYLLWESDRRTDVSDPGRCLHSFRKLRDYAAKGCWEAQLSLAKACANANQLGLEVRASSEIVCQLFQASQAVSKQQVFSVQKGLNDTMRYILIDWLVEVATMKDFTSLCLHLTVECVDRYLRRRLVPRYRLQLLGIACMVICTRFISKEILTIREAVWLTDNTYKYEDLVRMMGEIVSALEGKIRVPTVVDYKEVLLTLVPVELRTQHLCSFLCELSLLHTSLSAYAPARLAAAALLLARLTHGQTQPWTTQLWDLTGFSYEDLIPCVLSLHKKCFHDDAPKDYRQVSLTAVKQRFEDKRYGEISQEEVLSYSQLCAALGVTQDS
Change,normalised enrichment score
R5K F11L,0.138
N9P,6.41
D12H,1.95
L7S,0.321
I3Q,0.865
D12F,3.4
N6F,2.26
I3K,1.79
L8V,1.5
L8F,5.12
K4E,0.285
R13V,1.94
L8A,1.69
P1M,2.94
S2F,1.48
N6L,1.29
N9C,2.51
E10I,2.81
N9Q,3.6
F11N,0.437

# Sample 2 — Molecule: EIF4A3 (Homo sapiens, UniProt P38919); technique: cross-linking MS; matrix: cell fractions
partner,conditions,cross-linked residues
"ACIN1 (Homo sapiens, UniProt Q9UKV3)",with: DSSO,K296 to K1047
"PNN (Homo sapiens, UniProt Q9H307)",with: DMTMM,K374 to E159
"CCDC9 (Homo sapiens, UniProt Q9Y3X0)",with: DSSO,K19 to K284

# Sample 3 — technique: RNA Bind-n-Seq; form: RNA; matrix: in vitro; concentration: 365 nM; reference: no-protein control; reading: higher = stronger binding
# Target: RNA binding protein fox-1 homolog 2, RRM domain, GST-SBP tag (RBFOX2, Homo sapiens, UniProt O43251-10, residues 100-194)
# Notes: natural RNA segment, single round, ends assumed
# Constant ends, left off below: GGGAGUUCUACAGUCCGACGAUC … UGGAAUUCUCGGGUGCCAA
# Construct (chain): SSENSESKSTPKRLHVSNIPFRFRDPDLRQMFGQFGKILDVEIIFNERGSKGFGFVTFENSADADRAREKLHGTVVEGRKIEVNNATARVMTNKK
Sequence,RBNS enrichment (R)
CUAUGUCUGCUUACACAGCUUGGACAUGGCUGCUUUCCAUGAAGGAAAUAUAGGGGAGGUGGACUGUAAGGGAUAUAUAACCAGUGUGAAGAACUGCUUCAUAAAAUAUG,0.927
AGAAUUAAAGUUGCCAAAUUAUUCUGAUUGGUCUUUAAUCUCCUUAAGUUUUUGAUUUAUCUUACUUGGUAAAUGAAAUGCAUUAGCUGUCUGCCUUUUCCUUCCCAUCC,1.25
UUUCUGGGCCUCAUUCUGCCAAAGCUGGACCAAGGUUCCAUCUUUCUAAGCUCCCUAGCUCAGGCCAAGAAAGAAAGCUGAGCUACUUUUAACUUUCUCUUCCUUAAAUA,0.535
UCCCGGCCCUCCCCAGGGCCCCCCGCCCCCUCCUCUGCCUGCUGCGUGGAGGCAGCCAUGGGAAGGAGCCCAGGGGAGCUGGCCUGGGGGAGCGAAGCCCAUGUUCGCUU,0.551
UACGUCCUUGCUUCCUCUGAGCAGAGGCCUCCAUCUUAGUAUCAACAUAUUUAAAGAAAUUGAUGGUGUUCAUCAAGCUGGGGCCUGUGGCAGUUGUUGCCUGAGCACCA,0.309
CUGUUUAUCUACUGCUUUGAGCCCUCCUAAGUUAACCUGUGCCUCAUUUGUAAAACCACCAGCAUCAGGAGUAAGGGGGAGGCCAGAGGGCUCAGAUGGACACAGAAUUC,0.735
GCCCUUCUCCCCAUCAAGCGCUCAGAGACGGUGUGACGAUGCCACUGGGGGUUAUGCAGCGUGGUCCAGCCGGAGCGGCCAGCAUGACCAGCUGUCCAGGGGCUGCCUCC,0.302
AAGUUGGAUUAUAGAUUAUAACGUAGAGUUGGUUUGUAGGGCCAAAUAAUCAGAGGACAUGCAAUAAGGCAAGGCUGAGUGGAAAAUAGAGGUUCAAGGGCCUAGGUAGG,1.22
UAUAAUGUAACGUUUUAUUUCAAUUGUUUAUAUGGAUAGUCUGAGCAGGUACGGUUCUGAUUCUGAUUGCUAUCAAUAACACCCCAUACUUUCUUUGAACAUACUUUGAC,0.323
GCUGUCCUGUGUCGCCAGGUCGAAGAUCACAGUGAGGUAGAGGCCCUGCCCCAUCCCCAGGGCCGCCAGGCUUGCUCCGUUUGCUUUGAGUUUUUAGACCCCAGAGGGAG,0.534
UGCUAAGCAGGGCUUUGAAUACUUCUCCUUUAGCACUGGAGUAACAUUUAGGCAUGAGCUCUUGGCAGGAGUGGGCUCUGAGCAGGUGUCAUAUUCAUUCUUUACAAACC,1.13
GCAGGAAUCCCUUCCCAUCUGCUUUGUGAAGGGUCCCAUACAGGUGUAUCUAGACUUCAAGGACAGGGUUUGUCUCACAGGAUUGUCACUUAGGAGAUGAAAGAAUAUUA,0.308

# Sample 4 — technique: DHFR PCA, deep sequencing; matrix: yeast; with: (+)-ABA 1.4 µM; reference: wild-type fitted maximum; reading: higher = stronger binding
# Target: ABI1, truncated, D143A, DHFR fusion (Arabidopsis thaliana)
# Notes: methotrexate growth selection, single substitutions
# Starting sequence: PYL1, truncated, DHFR fusion (Arabidopsis thaliana); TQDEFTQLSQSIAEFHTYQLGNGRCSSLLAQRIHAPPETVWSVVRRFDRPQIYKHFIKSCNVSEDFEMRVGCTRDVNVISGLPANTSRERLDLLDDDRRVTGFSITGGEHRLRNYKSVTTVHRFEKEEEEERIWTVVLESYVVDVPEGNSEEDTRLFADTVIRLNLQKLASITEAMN; partner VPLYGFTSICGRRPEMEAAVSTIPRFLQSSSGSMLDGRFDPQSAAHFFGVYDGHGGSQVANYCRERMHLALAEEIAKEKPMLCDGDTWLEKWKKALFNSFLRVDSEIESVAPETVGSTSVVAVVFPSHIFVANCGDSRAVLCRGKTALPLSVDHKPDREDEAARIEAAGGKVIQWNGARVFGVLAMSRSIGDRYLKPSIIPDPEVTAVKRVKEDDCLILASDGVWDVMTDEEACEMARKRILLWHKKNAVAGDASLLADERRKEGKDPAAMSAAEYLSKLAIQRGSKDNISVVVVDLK
Change,relative binding score
T135L,-1.38%
L156N,4.92%
D97K,67.8%
I33V,35%
E130G,59.6%
S171L,40.3%
F66T,26%
G81S,14.8%
E109W,-6.21%
F15I,-23.3%
S11H,52.9%
S59N,41.8%
Q31I,-13.8%
F103R,-3.54%
W134G,55.4%
H55M,77.5%

# Sample 5 — technique: RNA Bind-n-Seq; form: RNA; matrix: in vitro; concentration: 1 µM; notes: whole 134-nt RNA, ends assumed; with: 150 mM KCl; reference: input library; reading: higher = stronger binding
# Target: Ras GTPase-activating protein-binding protein 1, RRM domain (G3BP1, Homo sapiens, UniProt Q13283)
# UniProt Q13283, sequence (whole entry, looked up): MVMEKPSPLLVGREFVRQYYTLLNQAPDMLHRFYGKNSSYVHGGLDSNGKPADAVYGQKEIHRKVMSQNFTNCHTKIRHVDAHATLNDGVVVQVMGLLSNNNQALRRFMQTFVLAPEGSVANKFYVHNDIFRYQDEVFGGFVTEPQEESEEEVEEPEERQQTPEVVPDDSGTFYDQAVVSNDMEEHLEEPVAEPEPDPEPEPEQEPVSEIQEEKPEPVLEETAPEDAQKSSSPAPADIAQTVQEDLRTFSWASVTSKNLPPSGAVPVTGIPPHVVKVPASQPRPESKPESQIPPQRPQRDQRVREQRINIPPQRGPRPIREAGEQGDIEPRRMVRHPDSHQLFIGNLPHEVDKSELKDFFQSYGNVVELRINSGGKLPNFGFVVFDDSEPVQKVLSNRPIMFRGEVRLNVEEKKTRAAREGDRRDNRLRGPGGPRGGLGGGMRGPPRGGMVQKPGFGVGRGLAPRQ
# Constant ends, left off below: GGGAGUUCUACAGUCCGACGAUC … UGGAAUUCUCGGGUGUCAAGG
Sequence,log2 enrichment
CUCAAGUCCUGUGCUACACAUCGUAUGUACCGAAUCGGGCCGGGCCGGGCCGGAAAGUAUUAUGUUACGCCGUUCGGAUCUGCACUUCCA,-1.11
UCAAGUCCUGUGCUACACAUCGUAUGUACCGAAUCGGGGCCGGCCGGGCCGGGGAAAGUAUUAUGUUACGCCGUUCGGAUCUGCACUUCC,-0.625
AUGCACUUGACAUAGUAGCAAAUUGGUUCUGAAUUAUGCAACUGUUUGCUAUUUAGUAAACUAGCAAAUGAUGCAUGUAUUUUGUUUUUC,-0.167
GUCCUGUGCUACACAUCGUAUGUACCGAAUCGGGGUGGGGAAAGGGGAAAAAAAGGGGAAAGUAUUAUGUUACGCCGUUCGGAUCUGCAC,0.747
UGGCCCUGGUGGCAUGCGGGGAGGAAGAGGUGGCCUCAUGGAUCGUGGUGGUCCCGGUUGAAUGUUCAGAGGUGGCCGUGGUGGAGACAG,0.759
CGCAGACAACACGCACCCACACAGACACAGAGGGAAGGGGUUGGGAUGGGGACAGGGUGCACAGCAGGGCGGGGUAGGACCCCAGCCCCU,-0.00805
UCAAGUCCUGUGCUACACAUCGUAUGUACCGAAUCGGAAAAAGGAAAGGUUUGGAAAGUAUUAUGUUACGCCGUUCGGAUCUGCACUUCC,-0.139
GCAGGAGGUAAAAACAAAUGGAAAUGCUUCGGAUAGUGGCAGGGGUGGGGGUUGCUAAGGAAAGGGUGGGAUGGGAGUGGGUAAAGAGUU,1.38
CUGUGCUACACAUCGUAUGUACCGAAUCGGGGAAAAAAAGGGGUUUUUUUGGGGAAAGGGGAAAGUAUUAUGUUACGCCGUUCGGAUCUG,0.579
UGGCCCUGGUGGCAUGCGGGGAGGAAGAGGUGGUCUCAUGGAUCGUGGUGGUCCCGGUGGAAUGUUCAGAGGUGGCCGUGGUGGAGACAG,0.959
AAGUCCUGUGCUACACAUCGUAUGUACCGAAUCGGGUGGGUUUGGGUUUUUUUGGGAAAGUAUUAUGUUACGCCGUUCGGAUCUGCACUU,0.487
UGGGAGGUGGAUUUUGUUUAUUUUUUUAACUCAUUUCCAGGGGUGGGAAUUUUUUUUUAAUAUGUGUCAUGAAUAAAGUUGUUUUUGAAA,2.02
GUGCUACACAUCGUAUGUACCGAAUCGGGGCCCCCCCGGGGCCCCCCCGGGGCCCCCCCGGGGAAAGUAUUAUGUUACGCCGUUCGGAUC,-0.798
ACCAUGCAGGUGGGCAUCUUUGGGAAGUGGGGCAAGGGGGGGAUAGGGAGGGGGGUAACACUUUGGGAACAGGUGAAACCAGGUCGUUUC,-0.31

# Repeated from above (sample 1):
Change,normalised enrichment score
N9P,6.41
D12H,1.95
L7S,0.321
